{"data": "Results gathered from unrelated publications", "note": "Compare with care: the assays were run in different laboratories.", "chain of UniProt Q12866 (whole entry, looked up)": "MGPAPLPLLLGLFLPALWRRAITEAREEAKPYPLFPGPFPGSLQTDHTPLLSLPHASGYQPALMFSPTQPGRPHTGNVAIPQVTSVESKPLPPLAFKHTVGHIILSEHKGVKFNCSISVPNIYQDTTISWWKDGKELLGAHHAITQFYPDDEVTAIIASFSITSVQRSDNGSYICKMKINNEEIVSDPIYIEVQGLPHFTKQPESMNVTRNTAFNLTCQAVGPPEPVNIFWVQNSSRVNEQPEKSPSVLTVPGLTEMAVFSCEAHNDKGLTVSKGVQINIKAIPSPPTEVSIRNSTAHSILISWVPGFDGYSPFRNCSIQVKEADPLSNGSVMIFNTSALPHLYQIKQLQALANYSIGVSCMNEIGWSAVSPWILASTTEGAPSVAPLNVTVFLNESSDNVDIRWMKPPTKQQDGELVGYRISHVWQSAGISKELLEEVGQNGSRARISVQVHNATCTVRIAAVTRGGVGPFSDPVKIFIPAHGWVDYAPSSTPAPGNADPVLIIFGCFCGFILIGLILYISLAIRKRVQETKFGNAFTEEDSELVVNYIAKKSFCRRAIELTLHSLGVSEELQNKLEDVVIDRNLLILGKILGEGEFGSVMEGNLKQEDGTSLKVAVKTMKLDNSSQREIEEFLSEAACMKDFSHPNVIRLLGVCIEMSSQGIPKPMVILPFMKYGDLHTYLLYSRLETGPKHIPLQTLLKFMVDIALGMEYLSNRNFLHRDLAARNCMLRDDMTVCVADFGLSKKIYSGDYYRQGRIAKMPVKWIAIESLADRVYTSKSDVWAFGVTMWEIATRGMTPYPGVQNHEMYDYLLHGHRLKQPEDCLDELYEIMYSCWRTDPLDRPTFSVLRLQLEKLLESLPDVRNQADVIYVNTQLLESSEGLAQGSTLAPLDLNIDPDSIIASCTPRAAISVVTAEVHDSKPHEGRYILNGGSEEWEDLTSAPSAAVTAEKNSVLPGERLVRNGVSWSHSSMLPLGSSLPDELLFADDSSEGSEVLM"}
{"SMILES": "Nc1ncnc2c([C@@H]3N[C@H](CO)[C@@H](O)[C@H]3O)c[nH]c12", "target or system": "unidentified influenza virus", "assay": "viral replication, inhibitor", "system": "MDCK", "conditions": "94.7 µM", "measurement": "inhibition", "result": "97.6%"}
{"SMILES": "Nc1c(C(=O)N2CCOCC2)sc2nc(-c3ccc(F)cc3)ccc12", "target or system": "Mycobacterium tuberculosis", "assay": "microbial growth", "system": "H37RV", "measurement": "IC50", "result": "34 µM"}
{"SMILES": "N.N.[Cl][Pt][Cl]", "target or system": "KARPAS-299", "assay": "cell growth or viability, ATP luminescence", "conditions": "72 h", "measurement": "IC50", "result": "1.53 µM"}
{"SMILES": "COC(=O)c1cc(-c2cccc(NC(=S)Nc3ccc(F)cc3F)c2)on1", "target or system": "Pseudomonas aeruginosa", "assay": "microbial growth, broth dilution", "system": "ATCC27853", "measurement": "MIC", "result": "> 64 µg/mL"}
{"SMILES": "CN(C)C(=O)c1sc2nc(-c3ccccc3)ccc2c1N", "target or system": "Mycobacterium tuberculosis", "assay": "microbial growth", "system": "H37RV", "measurement": "IC50", "result": "> 100 µM"}
{"SMILES": "COC(=O)c1cc(-c2cccc(NC(=S)Nc3ccc(F)cc3)c2)on1", "target or system": "Pseudomonas aeruginosa", "assay": "microbial growth, broth dilution", "system": "ATCC27853", "measurement": "MIC", "result": "> 64 µg/mL"}
{"SMILES": "COc1ccc(-c2ccc3c(N)c(C(=O)N4CCOCC4)sc3n2)cc1OC", "target or system": "Mycobacterium tuberculosis", "assay": "microbial growth", "system": "H37RV", "measurement": "IC50", "result": "62 µM"}
{"SMILES": "CC(C)(C)c1cccc(C=Nc2ccc(SCc3cc(=O)c(O)co3)cc2)c1", "assay": "DPPH scavenging, absorbance", "conditions": "30 min", "measurement": "IC50", "result": "37.2 µM"}
{"SMILES": "COC(=O)c1cc(-c2cccc(NC(=S)Nc3ccccc3)c2)on1", "target or system": "Mycolicibacterium fortuitum", "assay": "microbial growth, broth dilution", "system": "ATCC6841", "conditions": "48 h", "measurement": "MIC", "result": "> 64 µg/mL"}
{"SMILES": "COc1ccc(-c2cc(C(F)(F)F)c3c(N)c(C(=O)Nc4cccc(C)c4C)sc3n2)cn1", "target or system": "Mycobacterium tuberculosis", "assay": "microbial growth", "system": "H37RV", "measurement": "IC50", "result": "1 µM"}
{"SMILES": "COc1cnc(OC)n2nc(NS(=O)(=O)c3c(OCC(F)F)cccc3C(F)(F)F)nc12", "target or system": "L02", "assay": "cell growth or viability, CCK-8", "conditions": "25 µM, 72 h", "measurement": "inhibition", "result": "0.21%"}
{"SMILES": "COC(=O)c1cc(-c2cccc(NC(=S)Nc3ccc(OC)cc3)c2)on1", "target or system": "Mycolicibacterium fortuitum", "assay": "microbial growth, broth dilution", "system": "ATCC6841", "conditions": "48 h", "measurement": "MIC", "result": "> 64 µg/mL"}
{"SMILES": "[2H]c1c([2H])c([C@]2([2H])CCCN2C(=O)C(C)(C)Oc2ccc3cn[nH]c3c2)c([2H])c([2H])c1C([2H])([2H])[2H]", "target or system": "Tyrosine-protein kinase Mer (MERTK, Homo sapiens, UniProt Q12866)", "assay": "binding, competition with immobilised ligand", "conditions": "1 µM", "measurement": "remaining binding", "result": "91%"}
{"note": "Excerpt of the above:"}
{"SMILES": "CN(C)C(=O)c1sc2nc(-c3ccccc3)ccc2c1N", "target or system": "Mycobacterium tuberculosis", "assay": "microbial growth", "system": "H37RV", "measurement": "IC50", "result": "> 100 µM"}
{"SMILES": "COC(=O)c1cc(-c2cccc(NC(=S)Nc3ccc(F)cc3)c2)on1", "target or system": "Pseudomonas aeruginosa", "assay": "microbial growth, broth dilution", "system": "ATCC27853", "measurement": "MIC", "result": "> 64 µg/mL"}
